# Measured values collected from several papers.
# Each numbered part is a random draw from the data of one study; scales do not carry over between parts.
# Chain of UniProt Q96Q40 (whole entry, looked up): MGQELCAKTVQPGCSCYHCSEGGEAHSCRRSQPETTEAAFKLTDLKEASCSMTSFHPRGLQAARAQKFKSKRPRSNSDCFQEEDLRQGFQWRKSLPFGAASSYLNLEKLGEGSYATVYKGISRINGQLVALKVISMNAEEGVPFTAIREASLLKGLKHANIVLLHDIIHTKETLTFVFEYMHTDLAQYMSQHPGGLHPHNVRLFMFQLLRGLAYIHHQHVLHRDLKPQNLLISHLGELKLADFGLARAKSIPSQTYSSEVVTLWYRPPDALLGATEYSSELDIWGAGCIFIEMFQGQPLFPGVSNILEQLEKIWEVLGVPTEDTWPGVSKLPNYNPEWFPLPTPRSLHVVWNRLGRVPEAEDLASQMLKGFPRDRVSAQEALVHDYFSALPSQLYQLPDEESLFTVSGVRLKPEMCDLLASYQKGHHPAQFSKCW
# Chain of UniProt P78356 (whole entry, looked up): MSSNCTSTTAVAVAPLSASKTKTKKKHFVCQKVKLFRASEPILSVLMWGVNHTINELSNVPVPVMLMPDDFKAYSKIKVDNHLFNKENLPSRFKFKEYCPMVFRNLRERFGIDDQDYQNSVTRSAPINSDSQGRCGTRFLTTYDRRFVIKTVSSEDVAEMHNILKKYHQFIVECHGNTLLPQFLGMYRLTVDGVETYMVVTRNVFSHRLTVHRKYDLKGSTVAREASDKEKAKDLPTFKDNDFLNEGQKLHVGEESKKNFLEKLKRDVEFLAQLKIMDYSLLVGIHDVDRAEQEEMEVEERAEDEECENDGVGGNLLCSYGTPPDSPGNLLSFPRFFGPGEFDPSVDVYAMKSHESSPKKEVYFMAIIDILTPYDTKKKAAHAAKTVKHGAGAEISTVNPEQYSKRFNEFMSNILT
# Chain of UniProt P11362 (whole entry, looked up): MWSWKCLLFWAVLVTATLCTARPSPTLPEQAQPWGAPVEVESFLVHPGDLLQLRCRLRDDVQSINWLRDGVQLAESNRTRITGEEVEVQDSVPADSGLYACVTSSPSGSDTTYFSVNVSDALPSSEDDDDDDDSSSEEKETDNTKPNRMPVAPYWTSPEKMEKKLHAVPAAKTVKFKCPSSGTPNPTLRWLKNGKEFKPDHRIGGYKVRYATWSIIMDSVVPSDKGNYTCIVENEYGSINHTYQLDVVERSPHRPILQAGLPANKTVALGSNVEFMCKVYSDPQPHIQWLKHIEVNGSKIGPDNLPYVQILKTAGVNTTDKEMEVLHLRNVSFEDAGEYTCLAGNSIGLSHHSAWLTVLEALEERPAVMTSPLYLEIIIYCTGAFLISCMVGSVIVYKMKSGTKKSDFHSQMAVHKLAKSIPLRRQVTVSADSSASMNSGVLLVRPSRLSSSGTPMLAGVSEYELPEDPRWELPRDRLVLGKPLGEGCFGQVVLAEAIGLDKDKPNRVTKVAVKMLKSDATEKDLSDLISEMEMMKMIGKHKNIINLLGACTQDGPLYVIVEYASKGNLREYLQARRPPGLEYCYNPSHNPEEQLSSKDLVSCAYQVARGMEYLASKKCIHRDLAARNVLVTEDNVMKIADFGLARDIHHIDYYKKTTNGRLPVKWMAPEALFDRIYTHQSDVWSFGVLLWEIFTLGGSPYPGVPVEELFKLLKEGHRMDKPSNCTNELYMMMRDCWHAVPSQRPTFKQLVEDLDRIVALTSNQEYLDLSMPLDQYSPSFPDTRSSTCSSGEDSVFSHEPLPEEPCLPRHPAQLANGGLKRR
# Chain of UniProt P11802 (whole entry, looked up): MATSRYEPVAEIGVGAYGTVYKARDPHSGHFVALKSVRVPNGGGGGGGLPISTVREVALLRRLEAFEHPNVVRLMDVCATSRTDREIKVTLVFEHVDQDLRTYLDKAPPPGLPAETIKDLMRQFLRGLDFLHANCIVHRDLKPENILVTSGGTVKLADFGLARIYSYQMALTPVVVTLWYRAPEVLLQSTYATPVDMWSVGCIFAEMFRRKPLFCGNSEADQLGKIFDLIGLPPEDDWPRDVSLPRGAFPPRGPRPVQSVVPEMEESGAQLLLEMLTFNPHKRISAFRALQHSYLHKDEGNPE
# Chain of UniProt P09619 (whole entry, looked up): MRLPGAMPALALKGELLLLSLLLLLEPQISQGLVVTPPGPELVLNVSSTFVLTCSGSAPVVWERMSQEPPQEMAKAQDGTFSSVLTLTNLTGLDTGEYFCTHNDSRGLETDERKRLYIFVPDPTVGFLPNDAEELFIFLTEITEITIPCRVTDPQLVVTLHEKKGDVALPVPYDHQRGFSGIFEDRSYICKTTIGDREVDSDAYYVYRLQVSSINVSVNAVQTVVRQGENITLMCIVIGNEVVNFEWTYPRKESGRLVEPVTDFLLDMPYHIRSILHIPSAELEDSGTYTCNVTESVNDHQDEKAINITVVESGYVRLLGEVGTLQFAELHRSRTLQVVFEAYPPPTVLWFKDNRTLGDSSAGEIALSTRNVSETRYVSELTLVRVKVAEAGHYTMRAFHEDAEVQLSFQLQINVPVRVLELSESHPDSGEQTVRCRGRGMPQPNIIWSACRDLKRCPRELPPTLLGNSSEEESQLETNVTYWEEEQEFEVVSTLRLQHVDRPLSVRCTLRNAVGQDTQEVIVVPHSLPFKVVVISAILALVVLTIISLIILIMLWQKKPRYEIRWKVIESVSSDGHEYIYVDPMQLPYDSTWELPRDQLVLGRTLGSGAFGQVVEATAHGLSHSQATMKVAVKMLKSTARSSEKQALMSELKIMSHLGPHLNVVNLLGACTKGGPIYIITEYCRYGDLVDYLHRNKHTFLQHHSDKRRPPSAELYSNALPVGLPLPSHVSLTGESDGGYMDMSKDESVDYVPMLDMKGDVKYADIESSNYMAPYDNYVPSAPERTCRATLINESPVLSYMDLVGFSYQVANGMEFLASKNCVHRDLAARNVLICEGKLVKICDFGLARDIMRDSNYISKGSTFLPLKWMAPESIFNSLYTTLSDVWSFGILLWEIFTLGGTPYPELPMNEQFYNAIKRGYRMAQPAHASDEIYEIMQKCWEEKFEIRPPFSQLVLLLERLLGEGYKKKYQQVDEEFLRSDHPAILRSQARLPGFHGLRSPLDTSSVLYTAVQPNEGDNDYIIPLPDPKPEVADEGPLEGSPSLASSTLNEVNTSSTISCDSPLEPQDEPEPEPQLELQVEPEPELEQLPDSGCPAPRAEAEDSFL
# Chain of UniProt Q9UQB9 (whole entry, looked up): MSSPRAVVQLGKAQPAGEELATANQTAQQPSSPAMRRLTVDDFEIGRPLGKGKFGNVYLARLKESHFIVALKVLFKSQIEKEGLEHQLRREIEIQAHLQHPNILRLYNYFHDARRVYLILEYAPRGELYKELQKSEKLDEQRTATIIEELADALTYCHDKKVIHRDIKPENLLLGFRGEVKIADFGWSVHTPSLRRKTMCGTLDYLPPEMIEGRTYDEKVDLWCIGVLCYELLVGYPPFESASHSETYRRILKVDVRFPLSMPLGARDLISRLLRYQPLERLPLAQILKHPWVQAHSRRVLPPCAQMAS
# Chain of UniProt P49674 (whole entry, looked up): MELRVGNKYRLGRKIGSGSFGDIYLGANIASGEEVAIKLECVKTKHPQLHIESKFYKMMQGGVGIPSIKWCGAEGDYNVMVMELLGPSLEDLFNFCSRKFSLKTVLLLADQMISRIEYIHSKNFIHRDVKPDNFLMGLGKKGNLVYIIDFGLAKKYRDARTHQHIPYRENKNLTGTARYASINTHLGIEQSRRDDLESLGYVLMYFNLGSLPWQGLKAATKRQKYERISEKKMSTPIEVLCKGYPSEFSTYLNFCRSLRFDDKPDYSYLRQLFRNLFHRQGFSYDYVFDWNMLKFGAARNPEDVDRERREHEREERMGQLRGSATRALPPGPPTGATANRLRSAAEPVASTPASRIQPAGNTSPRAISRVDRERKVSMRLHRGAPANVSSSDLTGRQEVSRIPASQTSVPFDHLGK

# Block 1
# Structure (SMILES): CN(C(=O)c1ccccc1)c1cc(N(C)c2ccc3c(c2)CCc2ccc(C(=O)NCCN4CCOCC4)cc2C3=O)ccc1F
# Technique: competition with immobilised ligand
# Concentration: 1 µM
target,test,remaining binding [%]
"Serine/threonine-protein kinase RIO3 (RIOK3, Homo sapiens, UniProt O14730)",cell-free assay,95
"Casein kinase I isoform epsilon (CSNK1E, Homo sapiens, UniProt P49674)",cell-free assay,100
"Platelet-derived growth factor receptor beta (PDGFRB, Homo sapiens, UniProt P09619)",cell-free assay,98
"Tyrosine-protein kinase ABL1, phosphorylated (ABL1, Homo sapiens, UniProt P00519)",cell-free assay,100
"Calcium/calmodulin-dependent protein kinase type 1 (CAMK1, Homo sapiens, UniProt Q14012)",cell-free assay,93
"Phosphatidylinositol 5-phosphate 4-kinase type-2 beta (PIP4K2B, Homo sapiens, UniProt P78356)",cell-free assay,72
"Serine/threonine-protein kinase Nek4 (NEK4, Homo sapiens, UniProt P51957)",cell-free assay,89
"Epidermal growth factor receptor (EGFR, Homo sapiens, UniProt P00533, del747-752/P753S)",cell-free assay,72
"Cyclin-dependent kinase 4, with cyclin D3 (CDK4, Homo sapiens, UniProt P11802)",cell-free assay,100
"Ephrin type-A receptor 1 (EPHA1, Homo sapiens, UniProt P21709)",cell-free assay,100
"Discoidin domain-containing receptor 2 (DDR2, Homo sapiens, UniProt Q16832)",cell-free assay,100
"MAP kinase-interacting serine/threonine-protein kinase 1 (MKNK1, Homo sapiens, UniProt Q9BUB5)",cell-free assay,100
"Cyclin-dependent kinase 11A (CDK11A, Homo sapiens, UniProt Q9UQ88)",binding,95
"Receptor-type tyrosine-protein kinase FLT3 (FLT3, Homo sapiens, UniProt P36888, K663Q)",cell-free assay,89
"Insulin receptor-related protein (INSRR, Homo sapiens, UniProt P14616)",cell-free assay,100
"cGMP-dependent protein kinase 2 (PRKG2, Homo sapiens, UniProt Q13237)",cell-free assay,82
"Wee1-like protein kinase 2 (WEE2, Homo sapiens, UniProt P0C1S8)",cell-free assay,100
"Cyclin-dependent kinase 15 (CDK15, Homo sapiens, UniProt Q96Q40)",cell-free assay,76
"Calcium/calmodulin-dependent protein kinase type II subunit beta (CAMK2B, Homo sapiens, UniProt Q13554)",cell-free assay,99
"Receptor-type tyrosine-protein kinase FLT3 (FLT3, Homo sapiens, UniProt P36888, D835Y)",cell-free assay,98
"Tyrosine-protein kinase JAK3, JH1 (JAK3, Homo sapiens, UniProt P52333)",cell-free assay,100
"Calcium/calmodulin-dependent protein kinase type IV (CAMK4, Homo sapiens, UniProt Q16566)",cell-free assay,100
"Leukocyte tyrosine kinase receptor (LTK, Homo sapiens, UniProt P29376)",cell-free assay,100

# Block 2
# Compound: COc1cc(Nc2ncc(F)c(Nc3ccc4c(n3)N(COP(=O)(O)O)C(=O)C(C)(C)O4)n2)cc(OC)c1OC
target,test,test system,setting,EC50 [µM]
"Serine/threonine-protein kinase B-raf (BRAF, Homo sapiens, UniProt P15056, G469A)","kinase-HSP90-CDC37 interaction, LUMIER",human cells,,0.389
"Myosin light chain kinase family member 4 (MYLK4, Homo sapiens, UniProt Q86YV6)",kinase–CDC37 interaction,,,9.97
"Aurora kinase C (AURKC, Homo sapiens, UniProt Q9UQB9)",kinase–CDC37 interaction,,kinome plate 3@E02,0.033
"Fibroblast growth factor receptor 1 (FGFR1, Homo sapiens, UniProt P11362)","kinase–CDC37 interaction, inhibitor",human cells,FGFR1OP-FGFR1 fusion kinase,0.992

# Block 3
# Target: Tyrosine-protein kinase Fyn (FYN, Homo sapiens, UniProt P06241)
# Chain of UniProt P06241 (whole entry, looked up): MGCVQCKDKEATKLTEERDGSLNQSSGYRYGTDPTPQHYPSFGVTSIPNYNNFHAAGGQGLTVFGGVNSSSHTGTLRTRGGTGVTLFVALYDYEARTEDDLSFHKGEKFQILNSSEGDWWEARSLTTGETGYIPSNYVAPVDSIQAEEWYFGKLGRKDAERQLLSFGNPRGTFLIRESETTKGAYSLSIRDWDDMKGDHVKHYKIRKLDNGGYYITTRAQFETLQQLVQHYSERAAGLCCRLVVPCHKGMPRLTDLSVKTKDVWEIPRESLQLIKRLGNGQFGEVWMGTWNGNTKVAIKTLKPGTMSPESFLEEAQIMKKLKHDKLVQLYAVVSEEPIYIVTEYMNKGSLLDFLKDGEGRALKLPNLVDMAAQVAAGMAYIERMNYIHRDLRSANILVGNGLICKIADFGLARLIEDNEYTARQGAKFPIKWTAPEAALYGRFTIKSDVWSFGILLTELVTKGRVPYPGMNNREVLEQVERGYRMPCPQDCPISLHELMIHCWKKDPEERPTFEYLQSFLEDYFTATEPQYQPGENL
# Effect on: enzyme activity
# Action: inhibitor
# Concentration: 0.5 µM
# Reference: control
Structure (SMILES),remaining activity [%]
O=Nc1c(-c2c(O)[nH]c3cc(Br)ccc23)[nH]c2ccccc12,5.05
Oc1cccc(-c2nc(N3CCOCC3)c3oc4ncccc4c3n2)c1,91.7
c1ccc(-c2n[nH]c3c2oc2ccccc23)cc1,104
O=C1Nc2ccc(Br)cc2/C1=C/c1cc2c([nH]1)CCCC2,87.5
O=C1Cc2c([nH]c3ccc(Br)cc23)-c2ccccc2N1,73.4
CN(C)S(=O)(=O)c1ccc2c(c1)/C(=C/c1cc3c([nH]1)CCCC3)C(=O)N2,33.1
O=c1cc(N2CCOCC2)oc2c(-c3ccccc3)cccc12,100
O=C1NC(=O)c2c1c1c3ccccc3[nH]c1n1cncc21,97.7
COc1cccc(-c2cc(=O)c3ccccc3o2)c1N,97.3
c1ccc2c(-c3ccncc3)c[nH]c2c1,98.7
Cc1ccc(S(=O)(=O)/C=C/C#N)cc1,95.4
CN1CCN(c2ccc3nc(-c4c(N)c5c(F)cccc5[nH]c4=O)[nH]c3c2)CC1,22.5
O=C1NC(=O)c2c1c1c3ccccc3[nH]c1c1[nH]c3cc(Br)ccc3c21,95.2
Cc1cc(Nc2cc(N3CCN(C)CC3)nc(Sc3ccc(NC(=O)C4CC4)cc3)n2)[nH]n1,72.2
N#Cc1cnc2cnc(NCc3cccnc3)cc2c1Nc1ccc(F)c(Cl)c1,103
O=C1Nc2ccccc2/C1=C\c1c(Cl)[nH]c2ccccc12,101
CCCNC(=O)Nc1ccc(Oc2ncnc3cc(OC)c(OC)cc23)cc1Cl,92.7
COc1ccc2c(c1)c(C1=C(c3c[nH]c4ccccc34)C(=O)NC1=O)cn2CCCN(C)C,110
CCCCc1c(-c2ccc(OC)cc2)[nH]c2nccnc12,61.3
O=C(c1cc2cc(O)ccc2[nH]1)c1cc2cc(O)ccc2[nH]1,28.8

# Block 4
# Target: Beta-1 adrenergic receptor (ADRB1, Homo sapiens, UniProt P08588)
# Chain of UniProt P08588 (whole entry, looked up): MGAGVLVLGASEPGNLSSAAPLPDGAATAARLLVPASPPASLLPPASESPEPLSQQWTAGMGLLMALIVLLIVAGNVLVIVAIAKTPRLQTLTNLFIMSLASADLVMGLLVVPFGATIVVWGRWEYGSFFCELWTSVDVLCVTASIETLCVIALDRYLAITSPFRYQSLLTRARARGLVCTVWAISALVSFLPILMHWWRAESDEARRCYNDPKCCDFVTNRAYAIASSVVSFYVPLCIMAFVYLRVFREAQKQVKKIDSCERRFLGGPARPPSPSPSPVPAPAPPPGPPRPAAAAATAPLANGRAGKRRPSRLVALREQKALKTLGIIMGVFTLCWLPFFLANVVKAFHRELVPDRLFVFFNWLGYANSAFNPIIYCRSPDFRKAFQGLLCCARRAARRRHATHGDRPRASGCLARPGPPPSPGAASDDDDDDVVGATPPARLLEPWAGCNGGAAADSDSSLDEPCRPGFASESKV
# Action: agonist
Compound,EC50 [µM]
Cc1noc2c(-c3cccnc3NC3CCN(C)CC3)cc(-c3ccccc3)nc12,≥ 100
COc1ccc(-c2ccc3ccccc3n2)c(OC)c1OC,≥ 100
Brc1ccccc1-c1noc(-c2c[nH]nc2-c2ccccc2)n1,≥ 100
Cc1cc2c(s1)c1cnn(Cc3c(F)ccc(C)c3Cl)c(=O)c1n2C,≥ 100
COc1ccc(S(=O)(=O)N2CCN(c3ccccc3OC)CC2)cc1OC,≥ 100
Brc1ccc(-c2noc(-c3c[nH]nc3-c3ccccc3)n2)cc1,≥ 100
O=C(c1cc(O)nc2ccccc12)N1CCC(Cn2nc(-c3ccccc3)ccc2=O)CC1,≥ 100
C=CCN1CCN(Cc2cccc(OCC(O)CN(C)C3CCCCC3)c2)CC1 (stereo not drawn),≥ 100
OC1(c2nc(Nc3cccc(F)c3)n[nH]2)CCOCC1,≥ 100
Cc1ccc2c(C(=O)N(C)C(C)C)cc(-c3cnc(C(C)C)nc3)nc2c1,11.2
CN(c1cc(=O)c2ccnc(Nc3ccn(C)n3)c2o1)C1CCOCC1,≥ 100
C[C@@H](CN1CCC(Cc2ccccc2)CC1)[C@@H](O)c1ccc(O)cc1,≥ 100
Cc1occc1-c1nnc(SCc2cn3cccc(C)c3n2)o1,≥ 100
